Assay results from different studies.
“And” joins repeats or separate records; there may be more than shown. ± marks the error that the study gave.
FFAR4: Free fatty acid receptor 4 (FFAR4, Homo sapiens, UniProt Q5NUL3)
NADH dehydrogenase [ubiquinone] iron-sulfur protein 7, mitochondrial/NADH dehydrogenase [ubiquinone] iron-sulfur protein 2, mitochondrial/MT-ND1: NADH dehydrogenase [ubiquinone] iron-sulfur protein 7, mitochondrial/NADH dehydrogenase [ubiquinone] iron-sulfur protein 2, mitochondrial/MT-ND1 (Homo sapiens, UniProt O75251+O75306+P03886)
GAP50: Glideosome-associated protein 50 (GAP50, Plasmodium falciparum, UniProt Q8I2X3)
Kir3.1/Kir3.2: Kir3.1/Kir3.2 (Homo sapiens, UniProt P48051+P48549)
TRPM8: Transient receptor potential cation channel subfamily M member 8 (TRPM8, Homo sapiens, UniProt Q7Z2W7)

SMILES = O=c1cc(NCCc2cccs2)[nH]c(=O)[nH]1; target = FFAR4; assay = antagonist, β-arrestin recruitment; system = CHO cells; setting = 10 µM, together with: 4 µM TUG-891; quantity = inhibition; value = -19 ± 8%
SMILES = O=C(c1ccc(CNCCCN2CCN(C3CCCCC3)CC2)cc1)c1ccc([N+](=O)[O-])cc1; target = Sigma intracellular receptor 2 (TMEM97, Homo sapiens, UniProt Q5BJF2); assay = radioligand binding; system = RT-4 cell membranes; how to read = relative to: sigma1 Ki over sigma2 Ki; quantity = Ki ratio; value = 39.8
SMILES = CN(C)c1ccc2nc3ccc(=[N+](C)C)cc-3sc2c1; target = Microtubule-associated protein tau (MAPT, Homo sapiens, UniProt P10636); assay = ThT fluorescence; setting = 0.1-fold over protein, 30 h, together with: tau 10 µM, heparin; how to read = relative to: untreated; quantity = fibrillization plateau fluorescence; value = 51 ± 5%
SMILES = O=C(O)CCCCCNc1cc(=O)[nH]c(=O)[nH]1; target = FFAR4; assay = β-arrestin recruitment; system = CHO; setting = 10 µM; how to read = relative to: 30 µM TUG-891; quantity = agonist effect; value = 0%
SMILES = CC1=C(/C=C/C(C)=C/C=C/C(C)=C/C=O)C(C)(C)CCC1; target = Rhodopsin (RHO, Bos taurus, UniProt P02699, L266T); assay = retinal release, Trp FRET; system = lipid bicelles; setting = 28 °C, L266T mutant; how to read = relative to: wild-type rhodopsin; quantity = relative koff; value = 1.89 ± 0.03
SMILES = O=c1nc(SCc2cc(F)cc(C(F)(F)F)c2)nc(SCc2ccc3nc(OCCN4CCOCC4)ccc3c2)[nH]1; target = DNA topoisomerase 2-alpha (TOP2A, Homo sapiens, UniProt P11388); assay = DNA cleavage; setting = 15.6 µM, replicate 1; quantity = linear DNA; value = 0%
SMILES = NC(=O)NOCCCCCCCCCC[P+](c1ccccc1)(c1ccccc1)c1ccccc1.O=C([O-])C(F)(F)F; target = NADH dehydrogenase [ubiquinone] iron-sulfur protein 7, mitochondrial/NADH dehydrogenase [ubiquinone] iron-sulfur protein 2, mitochondrial/MT-ND1; assay = complex I-dependent respiration, Seahorse XF96; system = HCT-116; setting = 40 µM, 24 h; how to read = relative to: control; quantity = oxygen consumption rate; value = 3.14 ± 3.67%
SMILES = O=C1O/C(=C\c2cc(F)ccc2OCCN2CC[C@@H](F)C2)c2cc(Cc3cccc(F)c3)[nH]c(=O)c21; target = Dual specificity calcium/calmodulin-dependent 3',5'-cyclic nucleotide phosphodiesterase 1C, isoform PDE1C2 (PDE1C, Homo sapiens, UniProt Q14123); assay = enzyme activity, inhibitor; setting = together with: 3H-cGMP substrate; quantity = binding free energy; value = -11.5 kcal/mol
SMILES = NCCCCC(=O)O; target = uncharacterized protein (Pelagibacter ubique, UniProt Q4FKZ8); assay = differential scanning fluorimetry; system = Candidatus Pelagibacter ubique; setting = in-house screen; quantity = thermal shift; value = 3.57 °C
SMILES = O=C(COP(=O)(O)O)[C@@H](O)[C@H](O)[C@H](O)COP(=O)(O)O; target = PGM1 (Homo sapiens, UniProt P36871); assay = thermal proteome profiling; system = HepG2 cell lysate; setting = concentration not given, 57 over 37 °C; how to read = relative to: compound over control; quantity = thermal stability ratio; value = 5.92 and 3.85 and 3.09
SMILES = COc1cc(O)c2c(c1)oc(=O)c1c3cc(O)c(O)cc3oc21; target = Alpha-glucosidase MAL12 (MAL12, Saccharomyces cerevisiae S288c, UniProt P53341); assay = fluorescence quenching; setting = 307 K; quantity = ΔS; value = -318 J/(mol·K)
SMILES = CC(C)(C)NC(=O)[C@@H]1CN(Cc2cnc3occc3c2)CCN1C[C@@H](O)C[C@@H](Cc1ccccc1)C(=O)N[C@H]1c2ccccc2C[C@H]1O; target = GAP50; assay = surface plasmon resonance; quantity = kon; value = 98700 M⁻¹ s⁻¹
SMILES = CCc1cc(NC(=O)COc2ccc(Cl)cc2Cl)n(C2CCOCC2)n1; target = Kir3.1/Kir3.2; assay = thallium flux, activator; system = HEK293; how to read = relative to: standard compound; quantity = Emax; value = 92%
SMILES = Nc1ncnc2c1ncn2[C@@H]1O[C@H](COP(=O)(O)OP(=O)(O)OP(=O)(O)O)[C@@H](O)[C@H]1O; target = P2X purinoceptor 7 (P2rx7, Rattus norvegicus, UniProt Q64663); assay = ion current, two-electrode voltage clamp; system = Xenopus laevis oocytes; setting = 3000 µM; quantity = normalized current; value = 1 and 0.97
SMILES = CCCCCCCCNc1[nH]c(=O)[nH]c(=O)c1Br; target = FFAR4; assay = antagonist, β-arrestin recruitment; system = CHO cells; setting = 10 µM, together with: 4 µM TUG-891; quantity = inhibition; value = 14 ± 3%
SMILES = COc1cccc2c(Nc3ccc4[nH]c(C(=O)N/N=C/c5ccc(SC)cc5)cc4c3)cc(C)nc12; target = Nuclear receptor subfamily 4 group A member 2, LBD (Homo sapiens, UniProt P43354); assay = reporter gene, Gal4 hybrid reporter; setting = 1 µM; how to read = relative to: vehicle; quantity = activation; value = 1.09 ± 0.09 fold
SMILES = C[C@]12CCC(=O)C=C1CC[C@@H]1[C@@H]2[C@@H](O)C[C@@]2(C=O)[C@H]1CC[C@]2(O)C(=O)CO; target = Mineralocorticoid receptor (NR3C2, Homo sapiens, UniProt P08235); assay = reporter gene, agonist; how to read = relative to: baseline; quantity = maximal response; value = 25 fold
SMILES = NC(=O)NO; target = NADH dehydrogenase [ubiquinone] iron-sulfur protein 7, mitochondrial/NADH dehydrogenase [ubiquinone] iron-sulfur protein 2, mitochondrial/MT-ND1; assay = complex I-dependent respiration, Seahorse XF96; system = HCT-116; setting = 400 µM, 24 h; how to read = relative to: control; quantity = oxygen consumption rate; value = 70.5 ± 7.99%
SMILES = CCCNc1cc(=O)[nH]c(=O)[nH]1; target = FFAR4; assay = β-arrestin recruitment; system = CHO; setting = 10 µM; how to read = relative to: 30 µM TUG-891; quantity = agonist effect; value = 0%
SMILES = Cc1[nH]c(N)nc1/C=C/C(=O)c1cc(F)cc(F)c1.Cl; target = Voltage-gated hydrogen channel 1, monomeric (HVCN1, Homo sapiens, UniProt Q96D96); assay = proton current, inhibitor, inside-out patch clamp; quantity = Hill coefficient; value = 1.41 ± 0.06
SMILES = CC1=C[C@H](O)CC(C)(C)[C@H]1/C=C/C(C)=C/C=C/C(C)=C/C=C/C=C(C)/C=C/C=C(C)/C=C/C1=C(C)C[C@@H](O)CC1(C)C; target = Beta-lactoglobulin (LGB, Bos taurus, UniProt P02754); assay = fluorescence quenching; setting = 308 K; quantity = Stern-Volmer quenching constant; value = 19300 ± 3700 L/mol
SMILES = NC(=O)c1ccc(-c2nc(-c3ccc4c(c3)OCCO4)c(-c3ccccn3)[nH]2)cc1; target = TRPM8; assay = antagonist; system = HEK293; setting = 5 µM; how to read = relative to: control; quantity = remaining activity; value = 105 ± 13.4%
SMILES = O=C(COP(=O)(O)O)[C@@H](O)[C@H](O)[C@H](O)COP(=O)(O)O; target = Pyruvate kinase PKM (PKM, Homo sapiens, UniProt P14618); assay = pyruvate kinase activity, activator; system = A549 cell lysate; setting = together with: AIM; quantity = concentration reversing inhibition completely; value = 378 ± 35.1 nM
SMILES = Cc1ccc(C(=O)NCc2ccc(CNS(=O)(=O)c3ccc(C)cc3)cc2)cc1; target = C-X-C chemokine receptor type 4 (CXCR4, Homo sapiens, UniProt P61073); assay = binding, inhibitor, competitive binding; system = MDA-MB-231; setting = together with: biotinylated TN14003; quantity = EC; value = 1000 nM
SMILES = O=C(ON1C(=O)CCC1=O)c1cc(C(F)(F)F)cc(C(F)(F)F)c1; target = CD209 antigen (CD209, Homo sapiens, UniProt Q9NNX6); assay = covalent labelling, intact protein MS; setting = 20 µM; quantity = kobs; value = 0.0937 min⁻¹
SMILES = COc1cc(Nc2ncc3c(n2)-c2ccc(Cl)cc2C(c2c(F)cccc2OC)=NC3)ccc1C(=O)O; target = BMX; assay = kinase activity; setting = 1 µM; quantity = remaining activity; value = 25%
SMILES = COc1ccc(CN)cc1; target = Amine oxidase [flavin-containing] A (MAOA, Homo sapiens, UniProt P21397); assay = substrate; setting = pH 9.0, α,α-protio substrate; quantity = kcat; value = 0.1833 ± 0.00135 s⁻¹
SMILES = Cc1nn(C2CCS(=O)(=O)C2)c(C)c1NC(=O)COc1cccc(Cl)c1Cl (stereo not drawn); target = Kir3.1/Kir3.2; assay = activator, thallium flux; system = HEK293; setting = concentration not given; quantity = activity; value = inactive
SMILES = CN1CCN(c2cc(-c3ccncc3)c(-c3ccc4ccccc4c3)nn2)CC1; target = Gastric inhibitory polypeptide receptor (GIPR, Homo sapiens, UniProt P48546); assay = agonist, FLIPR; setting = 12.5 µM; quantity = activation; value = 0.5%
SMILES = O=C(NC1CC1)c1ccc(N2CCOc3ccc(Cl)cc32)s1; target = GAP50; assay = binding, surface plasmon resonance; setting = 1:1 binding model; quantity = kon; value = 10300 M⁻¹ s⁻¹
SMILES = CCOC(=O)c1c(C)[nH]c(/C=C2\C(=O)Nc3ccccc32)c1C; target = TRPM8; assay = antagonist; system = HEK293; setting = 5 µM; how to read = relative to: control; quantity = remaining activity; value = 91.2 ± 10.8%
SMILES = O=C(NC1CCC1)c1ccc2nc(-c3cccc(NS(=O)(=O)NCCN4CCCCC4)c3)cn2c1; target = Protein ENL (MLLT1, Homo sapiens, UniProt Q03111); assay = degrader, immunoblot, measured: MLLT1; setting = 10 µM, 72 h; how to read = relative to: DMSO control; quantity = protein level; value = 83%
SMILES = O=C(O)C1CCCNC1 (stereo not drawn); target = Sodium- and chloride-dependent taurine transporter (SLC6A6, Homo sapiens, UniProt P31641, G62A); assay = binding, microscale thermophoresis; setting = 62.5 µM, room temperature, together with: 50 nM labelled protein; how to read = higher = more binding; quantity = normalised MST signal; value = 0.0193
SMILES = NC(N)=Nc1ccc(-c2ccc(-c3ccc(N=C(N)N)c(Cl)c3)o2)cc1Cl; target = GAP50; assay = binding, surface plasmon resonance; setting = 1:1 binding model; quantity = kon; value = 1560 M⁻¹ s⁻¹
SMILES = O=C(COc1cccc(Cl)c1Cl)Nc1cc(C2CCC2)nn1C1CCOCC1; target = Kir3.1/Kir3.2; assay = activator; system = HEK293; quantity = Emax; value = 41%
SMILES = [O-][S+]1CCCCS1 (stereo not drawn); target = Superoxide dismutase [Cu-Zn] (SOD1, Homo sapiens, UniProt P00441, G94A); assay = LC-MS; system = brain homogenate; setting = 10 µM, 1 h, 37 °C; quantity = SOD1 dimer fraction; value = 1.88%
SMILES = Nc1ncnc2c1ncn2[C@@H]1O[C@H](CO[P@](=O)(O)O[P@](=O)(O)O[P@@](=O)(O)S)[C@@H](O)[C@H]1O; target = GUK1 (Homo sapiens, UniProt Q16774); assay = ITC; setting = molar ratio 2.17; quantity = ΔH; value = -0.409 kcal/mol
SMILES = O=c1cc(NCCCCCCO)[nH]c(=O)[nH]1; target = FFAR4; assay = β-arrestin recruitment; system = CHO; setting = 10 µM; how to read = relative to: 30 µM TUG-891; quantity = agonist effect; value = 1%
SMILES = C=CC(=O)N1CCC(COCC(=O)N2CCN(c3nc(-c4cnc(N)nc4C(F)F)nc(N4CCOC[C@@H]4C)n3)CC2)CC1; target = Activin receptor type-2A (ACVR2A, Homo sapiens, UniProt P27037); assay = KINOMEscan; setting = 1 µM; quantity = remaining binding; value = 92%
SMILES = CC[C@@H](C)[C@@H](NC(=O)[C@@H](Cc1ccc(O)cc1)NC(=O)[C@H]1CCCN1C(=O)[C@@H](CCCNC(=N)N)NC(=O)[C@H](N)Cc1c[nH]cn1)C(=O)N[C@H](C)C(=O)N[C@H](Cc1c[nH]cn1)C(=O)N[C@H](CCCNC(=N)N)C(=O)N[C@@H](C(=O)N[C@H](Cc1ccc(O)cc1)C(=O)N[C@H](CO)C(=O)N[C@H](Cc1ccccc1)C(N)=O)C(C)C; target = Transferrin receptor protein 1 (Tfrc, Mus musculus, UniProt Q62351); assay = flow cytometry; system = RAW264.7; setting = 6 h, pH 7.4, unit not given; how to read = relative to: 0 h; quantity = surface TFRC expression; value = 0.955
SMILES = COc1ccc(CCNc2cc(=O)[nH]c(=O)[nH]2)cc1OC; target = FFAR4; assay = agonist, β-arrestin recruitment; system = CHO cells; setting = 10 µM; how to read = relative to: 30 µM TUG-891; quantity = agonist effect; value = 1%
SMILES = CNC(=O)[C@@]12C[C@@H]1[C@@H](n1cnc3c(NCCc4ccc(O)c(O)c4)nc(C#Cc4ccc(Cl)s4)nc31)[C@H](O)[C@@H]2O; target = Adenosine receptor A3 (Mus musculus, UniProt Q61618); assay = radioligand binding; system = HEK293 membranes; how to read = relative to: mouse A3 over human A3 affinity; quantity = selectivity ratio; value = 23 to 25 fold

Excerpt of the above:
SMILES = O=C(c1ccc(CNCCCN2CCN(C3CCCCC3)CC2)cc1)c1ccc([N+](=O)[O-])cc1; target = Sigma intracellular receptor 2 (TMEM97, Homo sapiens, UniProt Q5BJF2); assay = radioligand binding; system = RT-4 cell membranes; how to read = relative to: sigma1 Ki over sigma2 Ki; quantity = Ki ratio; value = 39.8
SMILES = CN(C)c1ccc2nc3ccc(=[N+](C)C)cc-3sc2c1; target = Microtubule-associated protein tau (MAPT, Homo sapiens, UniProt P10636); assay = ThT fluorescence; setting = 0.1-fold over protein, 30 h, together with: tau 10 µM, heparin; how to read = relative to: untreated; quantity = fibrillization plateau fluorescence; value = 51 ± 5%
